Published values from different studies.
A part holds a random share of what one study measured. Positions count from the first letter of the parent shown.

Block 1
Target: Histone acetyltransferase KAT6A, winged helix 1, GST fusion (KAT6A, Homo sapiens, UniProt Q92794, residues 1-85)
Method: protein binding microarray
Form: double-stranded DNA, one strand shown
Sample: in vitro
Tested at: not given
Notes: 8-mer, flanks averaged, mean of 2 arrays, mostly near background
Baseline: not given
Reading: higher = stronger binding
Target sequence (chain): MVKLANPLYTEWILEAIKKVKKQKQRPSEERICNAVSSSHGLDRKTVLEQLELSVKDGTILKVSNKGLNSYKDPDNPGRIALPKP
`AGGTAGCC` gave an E-score of -0.0738.
For `CCACGAAA`, the E-score was -0.174.
With `GTGTGGAA` the E-score was -0.103.
With `ATACGCGG` the E-score was 0.348.
`ATTCCACA` gave an E-score of -0.124.
With `GGATCACA` the E-score was -0.0917.
For `CGGCGGCC`, the E-score was 0.471.
With `CTGCAACC` the E-score was -0.0786.
`ACTTGAAT` gave an E-score of -0.172.
`TAGACTAA` has an E-score of -0.0542.
`CTTTAGGA` has an E-score of -0.179.
`CTTACTGC` gave an E-score of 0.0486.
With `CAAATTCC` the E-score was -0.178.
`GATACGTA` gave an E-score of 0.00396.
The E-score of `AAAAGACG` is reported as -0.0307.
`ATCTCGTA` gave an E-score of -0.167.
`ACACTACT` has an E-score of -0.172.
`ATAATCTG` has an E-score of -0.14.
For `GAACTAGA`, the E-score was -0.0747.
The E-score of `CAGGTTCA` is reported as -0.266.
The E-score of `TCCACACA` is reported as -0.158.
The E-score of `CAGAATGG` is reported as -0.315.
`AGCGCAGA` has an E-score of 0.209.
`GCCGCACA` gave an E-score of 0.301.
With `AGATTTTA` the E-score was -0.0902.

Block 2
Target: ABI1, truncated, D143A, DHFR fusion (Arabidopsis thaliana)
Method: DHFR PCA, deep sequencing
Sample: yeast
Notes: methotrexate growth selection, single substitutions
With: (+)-ABA 17 µM
Baseline: wild-type fitted maximum
Reading: higher = stronger binding
Starting sequence: PYL1, truncated, DHFR fusion (Arabidopsis thaliana); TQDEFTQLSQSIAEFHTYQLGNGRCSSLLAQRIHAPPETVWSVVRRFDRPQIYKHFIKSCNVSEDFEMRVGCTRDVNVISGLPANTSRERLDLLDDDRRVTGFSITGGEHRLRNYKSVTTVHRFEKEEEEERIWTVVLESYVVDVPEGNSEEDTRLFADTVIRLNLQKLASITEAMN; partner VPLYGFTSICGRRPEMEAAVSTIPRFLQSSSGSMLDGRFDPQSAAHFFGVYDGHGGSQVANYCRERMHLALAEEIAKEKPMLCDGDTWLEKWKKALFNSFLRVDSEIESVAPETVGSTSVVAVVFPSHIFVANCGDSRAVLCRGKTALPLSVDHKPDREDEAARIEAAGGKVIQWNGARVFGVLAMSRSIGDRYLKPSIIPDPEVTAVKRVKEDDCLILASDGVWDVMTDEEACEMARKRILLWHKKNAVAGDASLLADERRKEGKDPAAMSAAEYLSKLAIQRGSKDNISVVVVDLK
`H122S`: “relative binding score” 23.2%.
`D159R`: “relative binding score” -4.09%.
Under “relative binding score”, `E64D` is recorded as 88.5%.
`H110S` — result for “relative binding score”: 18.4%.
`R132Q` — result for “relative binding score”: 100%.
Under “relative binding score”, `N22W` is recorded as 70.8%.
For `L28H`, “relative binding score” read 7.56%.
For `R24K`, “relative binding score” read 87%.
For `T86H`, “relative binding score” read 81.2%.
Under “relative binding score”, `E67C` is recorded as 79.9%.
Under “relative binding score”, `V43E` is recorded as 1.17%.
`T120S`: “relative binding score” 104%.
Under “relative binding score”, `V143W` is recorded as -3.73%.
Under “relative binding score”, `T1A` is recorded as 85.6%.

Block 3
Target: Ras GTPase-activating protein-binding protein 1, full length (G3BP1, Homo sapiens, UniProt Q13283)
Sequence of UniProt Q13283 (whole entry, looked up): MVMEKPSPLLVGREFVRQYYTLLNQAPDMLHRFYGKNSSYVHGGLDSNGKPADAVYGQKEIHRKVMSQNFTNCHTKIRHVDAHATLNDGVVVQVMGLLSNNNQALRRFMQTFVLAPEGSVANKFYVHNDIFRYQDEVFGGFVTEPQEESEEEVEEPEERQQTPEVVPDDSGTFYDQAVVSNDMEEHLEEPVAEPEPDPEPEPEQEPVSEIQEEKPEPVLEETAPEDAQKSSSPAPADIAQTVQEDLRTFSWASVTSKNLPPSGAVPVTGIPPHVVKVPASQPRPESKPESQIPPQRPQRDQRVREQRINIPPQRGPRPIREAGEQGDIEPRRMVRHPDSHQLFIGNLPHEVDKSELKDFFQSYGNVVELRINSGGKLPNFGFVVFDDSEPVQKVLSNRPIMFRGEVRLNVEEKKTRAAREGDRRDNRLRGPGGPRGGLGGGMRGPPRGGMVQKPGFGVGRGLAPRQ
Method: RNA Bind-n-Seq
Form: RNA
Sample: in vitro
Tested at: 200 nM
Notes: whole 134-nt RNA, ends assumed
With: 150 mM KCl
Baseline: input library
Reading: higher = stronger binding
Constant ends, left off below: GGGAGUUCUACAGUCCGACGAUC … UGGAAUUCUCGGGUGUCAAGG
With `UGGGAGGUGGAUUUUGUUUAUUUUUUUAGCUCAUUUCCAGGGGUGGGAAUUUUUUUUUAAUAUGGGUCAUGAAUAAAGUUGUUUUUGAAA` the log2 enrichment was 0.105.
`CAAGUCCUGUGCUACACAUCGUAUGUACCGAAUCGGGCCCCGGGCCCCGGCCCCGGAAAGUAUUAUGUUACGCCGUUCGGAUCUGCACUU` gave a log2 enrichment of -0.829.
`GCAGGAAGUAAAAACAAAUGGAAAUGCUUCGGAUAGUGGCAGGGGUGGGGGUUGCUAAGGAAAGGGUGGGAUGGGAUUGGGUAAAGAGUU` gave a log2 enrichment of 1.13.
The log2 enrichment of `CAAGUCCUGUGCUACACAUCGUAUGUACCGAAUCGGUUUGGGGUUUGGGGUUUGGAAAGUAUUAUGUUACGCCGUUCGGAUCUGCACUUC` is reported as -0.345.
For `UGGCCCUGGUGGCAUGCGGGGAGGAAGAGGUGGCCUCAUGGAUCGUGGUGGUCCCGGUCGAAUGUUCAGAGGUGGCCGUGGUGGAGACAG`, the log2 enrichment was -0.288.
With `CCUCAAGUCCUGUGCUACACAUCGUAUGUACCGAAUCGGGCGGGCGGCGGGGAAAGUAUUAUGUUACGCCGUUCGGAUCUGCACUUCCAG` the log2 enrichment was 0.89.
`CACAGACAACACGCACCCAAACAGACACAGAGGGAAGGGGUUGGGAUGGGGACAGGGUGCACAGCAGGGCGGGGUAGGACCCCAGCCCCU` gave a log2 enrichment of 1.91.
`GCAGGAAGUAAAAACAAAUGGAAAUGCUUCGGAUAGUGGCAGGGGUGGGGGUUGCUGAGGAAAGGGUGGGAUGGGAGUGGGUAAAGAGUU` has a log2 enrichment of 1.06.
For `AGUCCUGUGCUACACAUCGUAUGUACCGAAUCGGCCCCCGGGGCCCCCGGGCCCCCGGAAAGUAUUAUGUUACGCCGUUCGGAUCUGCAC`, the log2 enrichment was -0.792.
With `CAAGUCCUGUGCUACACAUCGUAUGUACCGAAUCGGUUUGGGGUUUGGGGUUUGGGAAAGUAUUAUGUUACGCCGUUCGGAUCUGCACUU` the log2 enrichment was -0.169.
The log2 enrichment of `CACAGACAACACGCACCCACACAGACACAGAGGGAAGGGGUUGGGAUGGGGACAGGGUGCACAGCAGGGCGGGGUAGUACCCCAGCCCCU` is reported as 1.82.
`UUAUUCUGUGUGACACCUGCCCUCGUGCCUACCACCUCGUCUGCCUUGAUCCUGAGCUUGACCGGGCUCCAGAGGGCAAAUGGAGCUGCC` gave a log2 enrichment of 0.705.
With `CAAGUCCUGUGCUACACAUCGUAUGUACCGAAUCGGGUGGGAAAAAAAGGGUGGGAAAGUAUUAUGUUACGCCGUUCGGAUCUGCACUUC` the log2 enrichment was 0.419.
The log2 enrichment of `AAGUCCUGUGCUACACAUCGUAUGUACCGAAUCGGAAAGGAAAAAAAGGUUUUUGGAAAGUAUUAUGUUACGCCGUUCGGAUCUGCACUU` is reported as -1.54.

Block 4
Target: RNA binding protein fox-1 homolog 2, RRM domain, GST-SBP tag (RBFOX2, Homo sapiens, UniProt O43251-10, residues 100-194)
Method: RNA Bind-n-Seq
Form: RNA
Sample: in vitro
Tested at: 365 nM
Notes: natural RNA segment, single round, ends assumed
Baseline: no-protein control
Reading: higher = stronger binding
Constant ends, left off below: GGGAGUUCUACAGUCCGACGAUC … UGGAAUUCUCGGGUGCCAA
Residues (chain): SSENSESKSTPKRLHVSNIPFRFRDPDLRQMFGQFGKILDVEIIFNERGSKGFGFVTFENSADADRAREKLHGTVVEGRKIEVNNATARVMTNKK
Under “RBNS enrichment (R)”, `UUUCCCCAGGCUAUGAAAAGGAAAGUGAGGGAGCGAUCAUAGUGCUGAUUAUGUCUUCACAGACUGGCUCAGGUUCUUCACGAAGAAGAUGGCCUUUGUGGGAUUUAAUU` is recorded as 0.574.
`CUUUGGAAUGCAUGCCAGUAAUGUAUUUUACAGUACAUGUUUAUUAUGUUCAAUAUUUGUAUUUGUGUUCUCUUUUGUUAUUUUUAAUUAGGGUAUAUGAAUAUUUUGCA` — result for “RBNS enrichment (R)”: 3.84.
Under “RBNS enrichment (R)”, `UAGAUGCUAGACCAACCAGCUUCCCAGGGUUCGUCGCUGUGAGGCGUAAGGGACAUGAAUUCUAGGGUCUCCUUUCUCCUUAUUUAUUCUUGUGGCUACAUCAUCCCUGG` is recorded as 0.525.
For `CCUCUGCAACUCCUCCCCCUUUUAUUUCCCCAAUUUAAACAAAGAUUCUGCCAACUGUGGAAACUUCAGUCCCUCAGGCUGGCAGCCAUGCCAGUACCUGCCUGGGGGUG`, “RBNS enrichment (R)” read 0.611.
Under “RBNS enrichment (R)”, `CAGCAGGGGGCACUGUCCCAGCCCUCUCUGCCCCAGCCAGGCACAGUGGCCUCUAGAGGGUGGUCCUGUAGACCGCACCUUUUAGAGUCGAGGCCUCUGUGGUUGUGCCG` is recorded as 0.361.
Under “RBNS enrichment (R)”, `GAUAAAACCAAAGAGACAACCGUUGUGGAUCCACUGGUGAAAGUAGAGCUCUAUGGUGUUCCUGAAGACACAAAGGAGCAAGAGACCAGCCAUGUGGAGAACAAUGGUAU` is recorded as 0.423.
Under “RBNS enrichment (R)”, `CUCCAAGGUGACCUCACAUUUGACUAUCAAAUGAAGUGUUGUGAUUGGGAAGCGUAGAGGCAGGGCCAUGUGCUCAGAACGGUGACAAUAAAGGACUGCCUUUUACUUGU` is recorded as 0.358.
`CCUAGAAGGUUUAUACUGCCUUCUUGCUUUAAAGCAAUUGGUCUAAAAUAUAUGUAAUCGUCUUAAUUAAAACGUUGCAGUAGGGUUGCUUUUAGAGUAUUAUUUUUUUG` — result for “RBNS enrichment (R)”: 0.621.
`ACCGGUCCCCCCCUAGCCCGUCAUCAGCCGGUGGCAGCUCCAUCUUCCAUUCCUGGUUUUAGGGCAGAAUCCAUGGAGACUGCUUCCAGAAGGCAUCUGGCUCUGAGUUA`: “RBNS enrichment (R)” 0.4.
Under “RBNS enrichment (R)”, `AGGAGUCCCAGCCGGAUGGCCACCUCUGCAACCAUCAUCCUGUCUUCAGCUCAGCGGCAGCCCCGAAAUUGUUAAGGCCCGUACUUUUCCUGCCACUUGGUCUGACCCUG` is recorded as 0.57.
`CACAGACUUCCCUAGUGUUUGUACUACACGUAGUCAGAAGCGAGUGUCCUUUUCUUUUGCUUCAGGCUAAGAGCUGCCUCGCUCUUUGUCCCCCCAUUAGGAUUCUAUUA`: “RBNS enrichment (R)” 0.209.
Under “RBNS enrichment (R)”, `GCAGCUUUUUAUGGUGUUUAAUCUAAUACACUUAAGCUGCAGUCCCAAAACUAGGGGUCCGUCAGUCUUGGAGACUAUGGGAGCCUCUGCACCCAGGGAAAAUGUUACCC` is recorded as 0.631.

Block 5
Target: CCNF, cyclin fold, Cln2 fusion (human)
Method: yeast growth competition, sequencing
Sample: yeast
Notes: strong parent motif
Baseline: not given
Reading: higher = stronger binding
Starting sequence: CDKN1B docking peptide (human); PSACRNLFGPVDH
For `A3M`, “normalised enrichment score” read 5.5.
Under “normalised enrichment score”, `F8V` is recorded as -0.393.
`C4Q` — result for “normalised enrichment score”: 5.71.
`N6D`: “normalised enrichment score” 2.6.
For `S2A`, “normalised enrichment score” read 7.43.
For `V11M`, “normalised enrichment score” read 6.88.
For `L7A`, “normalised enrichment score” read -0.0223.
Under “normalised enrichment score”, `S2V` is recorded as 6.09.
`N6G` — result for “normalised enrichment score”: 2.44.
`V11Q`: “normalised enrichment score” 6.24.
`G9F` — result for “normalised enrichment score”: 6.63.
`P1N`: “normalised enrichment score” 6.04.
`N6W` — result for “normalised enrichment score”: 2.12.
For `D12H`, “normalised enrichment score” read 6.96.
`V11P`: “normalised enrichment score” 7.43.
For `L7W`, “normalised enrichment score” read 0.766.
For `P1I`, “normalised enrichment score” read 7.76.

Some of these lines once more (block 2):
`D159R`: “relative binding score” -4.09%.
Under “relative binding score”, `E64D` is recorded as 88.5%.
`H110S` — result for “relative binding score”: 18.4%.
`R132Q` — result for “relative binding score”: 100%.
Under “relative binding score”, `N22W` is recorded as 70.8%.
For `L28H`, “relative binding score” read 7.56%.
For `R24K`, “relative binding score” read 87%.
For `T86H`, “relative binding score” read 81.2%.
Under “relative binding score”, `E67C` is recorded as 79.9%.
Under “relative binding score”, `V43E` is recorded as 1.17%.
`T120S`: “relative binding score” 104%.
Under “relative binding score”, `V143W` is recorded as -3.73%.
Under “relative binding score”, `T1A` is recorded as 85.6%.
